{"data": "Results gathered from unrelated publications", "cell line": "MRC5", "note": "± marks the error that the study gave."}
{"Structure (SMILES)": "O=C1C(Cl)=C(Cl)C(=O)c2c(O)ccc(O)c21", "test": "cytotoxicity, MTT", "test system": "RPMI-1640 with 10% FBS", "conditions": "48 h", "quantity": "IC50", "value": "10.4 ± 0.45 µM"}
{"Structure (SMILES)": "N=C(N)NCCC[C@@H]1NC(=O)[C@H](CCCNC(=N)N)NC(=O)[C@@H](CCCNC(=N)N)NC(=O)[C@@H](CCCNC(=N)N)NC(=O)[C@@H](C(c2ccccc2)c2ccccc2)NC(=O)[C@H](Cc2c[nH]c3ccccc23)NC(=O)[C@@H](C(c2ccccc2)c2ccccc2)NC1=O", "test": "cell growth or viability, MTS", "conditions": "100 µg/mL, 24 h", "quantity": "viability", "value": "> 90%"}
{"Structure (SMILES)": "CC(=O)N(C)CCN1CCN(c2cnc3c(cc(C(=O)NCc4ccc(Cl)cc4)c(=O)n3CC(=O)N3CC(C)(F)C3)n2)C1=O", "test": "cell growth or viability, CCK-8", "conditions": "40 µM", "quantity": "viability", "value": "99%"}
{"Structure (SMILES)": "Cc1cccnc1-c1csc(C(=O)Nc2cc(Cl)cc(NS(C)(=O)=O)c2)c1", "test": "cell growth or viability, ATP luminescence", "conditions": "10 days", "quantity": "CC50", "value": "3.25 µM"}
{"Structure (SMILES)": "CC1(F)CN(C(=O)Cn2c(=O)c(C(=O)NCc3ccc(Cl)cc3)cc3nc(N4CCN(CCN)C4=O)cnc32)C1", "test": "cell growth or viability", "quantity": "CC50", "value": "> 40 µM"}
{"Structure (SMILES)": "CC(C)=CCc1c(OCC2OC2(C)C)ccc2ccc(=O)oc12 (stereo not drawn)", "test": "cell growth or viability, MTT", "conditions": "24 h", "quantity": "IC50", "value": "> 100 µM"}
{"Structure (SMILES)": "CN1CCCN(c2cnc3c(cc(C(=O)NCc4ccc(Cl)cc4)c(=O)n3CC(=O)N3CC(C)(F)C3)n2)C1=O", "test": "cell growth or viability, CCK-8", "quantity": "CC50", "value": "> 40 µM"}
{"Structure (SMILES)": "N=C(N)NCCC[C@@H]1NC(=O)[C@H](CCCNC(=N)N)NC(=O)[C@@H](CCCNC(=N)N)NC(=O)[C@H](C(c2ccccc2)c2ccccc2)NC(=O)[C@H](C(c2ccccc2)c2ccccc2)NC(=O)[C@H](C(c2ccccc2)c2ccccc2)NC(=O)[C@H](CCCNC(=N)N)NC1=O", "test": "cell growth or viability, MTS", "conditions": "150 µg/mL, 24 h", "quantity": "viability", "value": "61 to 70%"}
{"Structure (SMILES)": "CC(C)C(=O)Cc1c(OCC(O)C(C)(C)O)ccc2ccc(=O)oc12 (stereo not drawn)", "test": "cell growth or viability, MTT", "conditions": "24 h", "quantity": "IC50", "value": "> 100 µM"}
{"note": "Repeated from above:"}
{"Structure (SMILES)": "Cc1cccnc1-c1csc(C(=O)Nc2cc(Cl)cc(NS(C)(=O)=O)c2)c1", "test": "cell growth or viability, ATP luminescence", "conditions": "10 days", "quantity": "CC50", "value": "3.25 µM"}
{"Structure (SMILES)": "N=C(N)NCCC[C@@H]1NC(=O)[C@H](CCCNC(=N)N)NC(=O)[C@@H](CCCNC(=N)N)NC(=O)[C@@H](CCCNC(=N)N)NC(=O)[C@@H](C(c2ccccc2)c2ccccc2)NC(=O)[C@H](Cc2c[nH]c3ccccc23)NC(=O)[C@@H](C(c2ccccc2)c2ccccc2)NC1=O", "test": "cell growth or viability, MTS", "conditions": "100 µg/mL, 24 h", "quantity": "viability", "value": "> 90%"}
